# Experimental data gathered from unrelated publications.
# Every numbered part comes from another study and shows a few of its results, in no order.

# Sample 1
# Target: Centromere-binding protein 1, full length, N-terminal tag (CBF1, Saccharomyces cerevisiae, UniProt P17106, residues 1-351)
# UniProt P17106, sequence (whole entry, looked up): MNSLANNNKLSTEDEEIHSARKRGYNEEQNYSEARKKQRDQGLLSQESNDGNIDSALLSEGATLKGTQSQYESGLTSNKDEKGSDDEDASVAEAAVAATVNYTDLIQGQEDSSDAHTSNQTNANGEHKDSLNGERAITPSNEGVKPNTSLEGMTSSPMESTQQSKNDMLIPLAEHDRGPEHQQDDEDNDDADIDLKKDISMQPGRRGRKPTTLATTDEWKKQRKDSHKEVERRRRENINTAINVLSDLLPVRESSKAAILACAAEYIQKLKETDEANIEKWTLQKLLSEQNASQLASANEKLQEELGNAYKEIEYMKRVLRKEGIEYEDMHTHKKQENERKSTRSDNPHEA
# Method: protein-binding microarray
# Form: double-stranded DNA, one strand shown
# Medium: in vitro
# Concentration: 0.8 µM
# Setting: whole 60-bp probe, no competitor
# Direction: higher = stronger binding
# Constant ends, left off below: … GTCTTGATTCGCTTGACGCTGCTG
Strand,fluorescence intensity [a.u.]
GAATGCATACGTCGTGGTGTTTATCTTTGATTGTAG,552
GAAAACCATCCACTTCACGAGACTGATCTCCTCTAG,578
GAAGCCAATAATCCTCACATGGTGGAGCTACAATAG,686
CTAACTATATTATTACACGCGGTGTAAGAAGATTTC,526
CTATTCAAAAATATAAACGTGGCTTATCTCAGATTC,549
CTATCGCATAAGAGGCACGCCTCTTATCAATTTTTC,520
GAAAATATCAACGGCCACACCATAGATTCCTTTTAG,488
CTATGAATAGTACATGATGCAATAGAAGGTGGATTC,536
GAATTTAATGAGTGACACGATTTGTTTTGATAATAG,546
TGTACGAAGCTATATCATGATATTATAGTAGTTAGG,568
CTAGAAAGGCTGTTACATGATCACTAATCGTAATTC,524
GAAATTTCACATCATCAGGTGATGTCAACTCAGTAG,2290
GAAACGACTTGCGCACATGTGAATCATTAACAATAG,876
GAATGCTTATTACGTGACATGACCCTATTGTATTAG,701
GAAACATGCCTATGTTTCGTGCTTTTGCCGATTTAG,469
CCTAACTACTATAGAGGTGACATATAGCTTCGTACA,525
GAAGGCAAATATCATGGTGACACGCTTATAGATTAG,594
CTACACCGTCACCATCACCATCATATCGCCTTATTC,532
GAAGTGGGTGTGGGTGTGGTGTGGGTGTGGTGGTAG,560

# Sample 2
# Target: RNA binding protein fox-1 homolog 2, RRM domain, GST-SBP tag (RBFOX2, Homo sapiens, UniProt O43251-10, residues 100-194)
# Method: RNA Bind-n-Seq
# Form: RNA
# Medium: in vitro
# Concentration: 365 nM
# Setting: natural RNA segment, single round, ends assumed
# Relative to: no-protein control
# Direction: higher = stronger binding
# Constant ends, left off below: GGGAGUUCUACAGUCCGACGAUC … UGGAAUUCUCGGGUGCCAA
# Construct (chain): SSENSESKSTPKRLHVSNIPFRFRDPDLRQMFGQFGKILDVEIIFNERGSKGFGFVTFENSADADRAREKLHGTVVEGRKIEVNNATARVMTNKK
Strand,RBNS enrichment (R)
UUAGUAGAGACAGGGUUUCACCAUGUUGACCACACUGGUCUUGAACUUCUAACCAUGUGAUCUGCCUGCCUCGGCCUCCCAAAGUGCUGGGAUUACAGGCUUGAGCCACC,0.264
CUGUGGGGACAGUGGCUACUGAGAAAUCUACAUUGUAAGAGAAGACAAUGAAAGACCCUGGCCCUGUCUCUCAAAACUUAACUUUCUCUGUAUGAUUUUUUUUUUAAAAA,0.663
UCCUCCACCGUGGCGGCCAGCUGCAUGGAGCCCGGCCCUUGGGCACUGGUGAGCGUUGGAACCUUGUCGUCUGGCUCCGAGCCUCUGCUGUGCGCAACAGCCUCUGUCCC,1.53
UGUGUGUGUGUGCUAUCCAAAUAUAUUUGUAUAUAUUUGUAUAGCAUUUUUACACUUUAGGAGUAAUCUGGAAUUCAAAAGGGAAUGAGAGCUUACUCCCUUCCACAGUU,0.284
GUCUGGUCCCUGGCUCCUCUGACCAGCCCUUAGGCUAUGUGGUGGCUUCUCUCUGCCUCAGUGUCCGGGUCUGUAAGGUGGGCAGUUGAUGAUUUGUGGCAUCUCAACCA,0.448
GUGCCAGUUUUAAGAAAGAAUUUCUGUGAAGUGUGAGGACUCUGGAGUCUAGCUCACAUAAAGAGAGUGUUAUAUAAAAAUCCGACAGCUGAACUAGGUUGCUCUUUUUU,0.477
GCUGUUUGUAACACAUCUGUUAUUCUGCCUACCUGUACUUUUUGCUGCCCAUCCCUGUUGCCUUUGAGUUUCUUGGAAUUGUGGCUGUCCUCGGAAUCUCUUUUCUAUUC,0.408
CCUCCUCCCCACCCCCUCGUCAGCCAGCGUUGCUGUUCCUUGCAGAGAAAAGGAUUGUGGGAAACUCCAGGACUCUUCCCACCGCCUCCCAGCGCCUGCCUGCUGGGGCU,1.36

# Sample 3
# Target: Sal-like protein 4, full length isoform B (SALL4, Homo sapiens, UniProt Q9UJQ4-2, residues 1-616)
# Method: universal PBM
# Form: double-stranded DNA, one strand shown
# Medium: in vitro
# Concentration: not given
# Setting: 8-mer, flanks averaged, mean of replicates
# Direction: higher = stronger binding
Strand,E-score
GTGTACAA,0.191
CTTTCTGC,-0.0997
CGACCATA,0.142
ATCCGAGA,-0.0689
AATTAACC,0.104
AACACTAG,0.0514
CTTTAGTA,0.0609
CTTATGTA,0.319
GGAGCTGA,-0.193
GACTTAAA,0.115
ATTAAGAA,0.215
GTGACCAA,0.168
GCAGTAAA,0.0358
AAGCGACC,-0.131
TATACAAA,0.37
ATTCGCAA,0.211
CGACGCCC,-0.116
ATTGCTTA,0.266
GAGCAAGA,-0.0439
CACCGGCC,-0.426
CTGGTCCA,-0.193
GCCGTGCC,-0.226
GGTGCAGA,-0.126

# Sample 4
# Target: Histone acetyltransferase KAT6A, winged helix 2, GST fusion (KAT6A, Homo sapiens, UniProt Q92794, residues 85-181)
# Method: protein binding microarray
# Form: double-stranded DNA, one strand shown
# Medium: in vitro
# Concentration: not given
# Setting: 8-mer, flanks averaged, mean of 2 arrays, mostly near background
# Relative to: not given
# Direction: higher = stronger binding
# Residues (chain): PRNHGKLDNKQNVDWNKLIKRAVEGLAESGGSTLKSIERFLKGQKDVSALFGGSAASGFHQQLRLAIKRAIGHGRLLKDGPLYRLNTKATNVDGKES
Strand,E-score
AACCTATA,-0.0941
CCCGATAG,-0.129
GCCGCGGA,0.22
ATTTAATC,0.105
GTTAGCTA,-0.105
CCCTTAAG,0.0759
AGAACGAC,-0.107
AAGTTCCT,-0.0833
AATTCGAC,-0.0328
GAGAACTC,-0.102
TCCCCCCA,-0.168
AACGGTGG,-0.0841
ACTCCGCC,0.0734
ACGTAGTC,-0.13
CAACCGGA,0.03
AGCGAAGC,0.25
CACCCGAG,0.133
AGGATGCG,-0.0591
AATCCGAC,-0.0544
AATCCTCT,-0.114
AATACGTA,-0.155
CGCGTGGC,0.175
CATACGCA,0.0746
ACTATTCC,0.128
CACCAAGC,-0.142
